Results from different studies.
Protocols differ between the studies behind these lines.

Molecule = COc1ccc(-c2cc(=O)c3c(OC)cc(OC)c(OC)c3o2)cc1OC; target or system = Replicase polyprotein 1ab, main protease (rep, Severe acute respiratory syndrome coronavirus 2, UniProt P0DTD1); test = reporter gene (mKate2), inhibitor; conditions = 20 µM; quantity = inhibition; value = -0.136%
Molecule = NVPLHGTILTRPLLE; target or system = human CD4 T cells; test = AIM; system = peptide; quantity = responding donors; value = 8%
Molecule = Nc1ncnc2c([C@@H]3N[C@H](CO)[C@@H](O)[C@H]3O)c[nH]c12; target or system = Marburg virus; test = antibody staining; system = HeLa, Musoke; conditions = 200 µM; quantity = antigen-positive cells; value = 0.3%
Molecule = VNNSYECDIPIGAGI; target or system = human CD4 T cells; test = AIM; system = peptide; quantity = responding donors; value = 11%
Molecule = CC[C@H](C)[C@H](NC(=O)[C@H](CC(C)C)NC(=O)[C@H](Cc1c[nH]c2ccccc12)NC(=O)[C@H](CCC(N)=O)NC(=O)[C@@H](NC(=O)[C@H](Cc1ccccc1)NC(=O)[C@H](C)NC(=O)[C@H](CCCCNC(=O)COCCOCCNC(=O)COCCOCCNC(=O)CC[C@H](NC(=O)CCCCCCCCCCCCCCCCCCC(=O)O)C(=O)O)NC(=O)[C@H](CCC(N)=O)NC(=O)[C@H](C)NC(=O)[C@@H](NC(=O)[C@H](CCCCN)NC(=O)[C@H](CC(=O)O)NC(=O)[C@H](CC(C)C)NC(=O)C(C)(C)NC(=O)[C@@H](NC(=O)[C@H](CO)NC(=O)[C@H](Cc1ccc(O)cc1)NC(=O)[C@H](CC(=O)O)NC(=O)[C@H](CO)NC(=O)[C@@H](NC(=O)[C@H](Cc1ccccc1)NC(=O)[C@@H](NC(=O)CNC(=O)[C@H](CCC(=O)O)NC(=O)C(C)(C)NC(=O)[C@@H](N)Cc1ccc(O)cc1)[C@@H](C)O)[C@@H](C)O)[C@@H](C)CC)[C@@H](C)CC)C(C)C)C(=O)N[C@@H](C)C(=O)NCC(=O)NCC(=O)N1CCC[C@H]1C(=O)N[C@@H](CO)C(=O)N[C@@H](CO)C(=O)NCC(=O)N[C@@H](C)C(=O)N1CCC[C@H]1C(=O)N1CCC[C@H]1C(=O)N1CCC[C@H]1C(=O)N[C@@H](CO)C(N)=O; system = healthy subjects; conditions = 1.5 mg, Nausea, multiple ascending dose; quantity = TEAE incidence; value = 0%

A few entries again:
Molecule = NVPLHGTILTRPLLE; target or system = human CD4 T cells; test = AIM; system = peptide; quantity = responding donors; value = 8%
